# Measured values of several laboratories.
# Amino acid sequences for entries named in this document (tags omitted). A change or cut given only in a name is not applied to a line headed by its entry. Residues count along the entry.
# UniProt P05067, whole entry, looked up: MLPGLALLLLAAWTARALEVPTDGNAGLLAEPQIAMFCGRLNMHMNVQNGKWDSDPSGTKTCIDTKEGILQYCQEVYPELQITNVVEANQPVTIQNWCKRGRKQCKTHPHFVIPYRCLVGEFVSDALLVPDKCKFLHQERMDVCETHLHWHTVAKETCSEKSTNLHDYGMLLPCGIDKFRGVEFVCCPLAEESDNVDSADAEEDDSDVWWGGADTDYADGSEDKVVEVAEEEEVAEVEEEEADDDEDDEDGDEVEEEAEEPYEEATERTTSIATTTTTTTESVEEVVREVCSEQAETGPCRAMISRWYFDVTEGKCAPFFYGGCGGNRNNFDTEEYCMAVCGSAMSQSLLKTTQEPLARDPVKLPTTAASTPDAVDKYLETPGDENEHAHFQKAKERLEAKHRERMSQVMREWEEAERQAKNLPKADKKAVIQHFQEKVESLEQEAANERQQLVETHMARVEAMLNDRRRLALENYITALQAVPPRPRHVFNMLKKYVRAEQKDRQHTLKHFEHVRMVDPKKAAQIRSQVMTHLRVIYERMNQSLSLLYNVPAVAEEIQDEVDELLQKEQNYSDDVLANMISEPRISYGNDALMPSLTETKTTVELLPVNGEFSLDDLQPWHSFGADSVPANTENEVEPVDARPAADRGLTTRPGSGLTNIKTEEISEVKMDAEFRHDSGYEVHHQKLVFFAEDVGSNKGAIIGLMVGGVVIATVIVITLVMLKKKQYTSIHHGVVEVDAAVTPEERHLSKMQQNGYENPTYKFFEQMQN
# UniProt Q9R0C9, whole entry: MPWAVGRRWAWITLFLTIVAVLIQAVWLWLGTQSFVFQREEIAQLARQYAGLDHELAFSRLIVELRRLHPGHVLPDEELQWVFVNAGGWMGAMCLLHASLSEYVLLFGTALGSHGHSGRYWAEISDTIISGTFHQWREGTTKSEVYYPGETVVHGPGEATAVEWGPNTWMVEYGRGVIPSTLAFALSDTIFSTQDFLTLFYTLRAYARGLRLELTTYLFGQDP
# UniProt Q99685, whole entry: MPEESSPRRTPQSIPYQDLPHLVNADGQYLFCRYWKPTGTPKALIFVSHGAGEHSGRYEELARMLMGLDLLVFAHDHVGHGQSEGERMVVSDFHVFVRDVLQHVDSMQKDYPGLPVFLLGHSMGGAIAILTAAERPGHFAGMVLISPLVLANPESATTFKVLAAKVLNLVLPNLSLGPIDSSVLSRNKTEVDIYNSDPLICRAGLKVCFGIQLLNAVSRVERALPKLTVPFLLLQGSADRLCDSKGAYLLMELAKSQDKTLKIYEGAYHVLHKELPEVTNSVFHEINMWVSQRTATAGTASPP
# UniProt Q9HCG7, whole entry: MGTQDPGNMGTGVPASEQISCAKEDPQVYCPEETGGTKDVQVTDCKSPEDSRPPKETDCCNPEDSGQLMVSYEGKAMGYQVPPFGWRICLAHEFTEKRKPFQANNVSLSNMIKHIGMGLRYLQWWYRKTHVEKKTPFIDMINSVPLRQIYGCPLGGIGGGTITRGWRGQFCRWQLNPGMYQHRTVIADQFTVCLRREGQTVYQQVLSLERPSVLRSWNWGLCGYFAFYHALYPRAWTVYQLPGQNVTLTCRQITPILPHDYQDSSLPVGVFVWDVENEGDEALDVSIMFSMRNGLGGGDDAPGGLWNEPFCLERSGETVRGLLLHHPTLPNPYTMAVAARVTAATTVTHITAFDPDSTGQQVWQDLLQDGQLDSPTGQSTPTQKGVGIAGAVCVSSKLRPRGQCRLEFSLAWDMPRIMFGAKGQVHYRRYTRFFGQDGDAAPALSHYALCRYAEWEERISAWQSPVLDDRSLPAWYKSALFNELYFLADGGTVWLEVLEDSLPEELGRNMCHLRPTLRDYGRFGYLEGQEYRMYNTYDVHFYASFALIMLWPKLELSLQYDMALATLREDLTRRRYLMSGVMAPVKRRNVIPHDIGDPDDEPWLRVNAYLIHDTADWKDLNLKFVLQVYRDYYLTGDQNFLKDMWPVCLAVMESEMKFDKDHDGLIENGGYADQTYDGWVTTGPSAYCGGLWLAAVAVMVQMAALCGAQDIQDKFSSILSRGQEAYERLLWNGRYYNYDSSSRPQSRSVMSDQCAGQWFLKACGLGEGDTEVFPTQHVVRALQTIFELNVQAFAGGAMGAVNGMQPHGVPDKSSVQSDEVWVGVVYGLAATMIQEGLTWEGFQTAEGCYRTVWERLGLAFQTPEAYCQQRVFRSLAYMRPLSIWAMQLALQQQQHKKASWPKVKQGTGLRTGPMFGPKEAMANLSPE
# UniProt Q96EB6, whole entry, looked up: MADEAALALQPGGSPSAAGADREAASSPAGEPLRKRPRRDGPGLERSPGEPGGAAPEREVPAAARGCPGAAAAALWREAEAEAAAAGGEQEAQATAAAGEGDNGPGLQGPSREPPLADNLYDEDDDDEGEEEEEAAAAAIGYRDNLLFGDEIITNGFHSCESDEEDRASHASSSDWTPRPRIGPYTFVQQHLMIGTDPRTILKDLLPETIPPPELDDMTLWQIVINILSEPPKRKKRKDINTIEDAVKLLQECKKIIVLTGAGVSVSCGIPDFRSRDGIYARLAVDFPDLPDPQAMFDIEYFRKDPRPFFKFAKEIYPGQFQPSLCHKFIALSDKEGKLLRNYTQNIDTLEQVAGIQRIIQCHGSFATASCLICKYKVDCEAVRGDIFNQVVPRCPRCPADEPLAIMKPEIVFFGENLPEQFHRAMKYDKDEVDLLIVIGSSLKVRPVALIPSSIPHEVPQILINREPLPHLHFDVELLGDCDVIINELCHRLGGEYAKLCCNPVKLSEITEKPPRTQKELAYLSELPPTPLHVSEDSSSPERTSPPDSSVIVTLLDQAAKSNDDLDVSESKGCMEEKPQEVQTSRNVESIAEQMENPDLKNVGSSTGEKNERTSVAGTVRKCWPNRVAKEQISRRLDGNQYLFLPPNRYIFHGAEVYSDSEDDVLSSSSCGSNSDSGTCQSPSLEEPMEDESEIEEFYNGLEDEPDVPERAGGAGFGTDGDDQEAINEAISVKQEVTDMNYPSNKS
# UniProt P80457, whole entry: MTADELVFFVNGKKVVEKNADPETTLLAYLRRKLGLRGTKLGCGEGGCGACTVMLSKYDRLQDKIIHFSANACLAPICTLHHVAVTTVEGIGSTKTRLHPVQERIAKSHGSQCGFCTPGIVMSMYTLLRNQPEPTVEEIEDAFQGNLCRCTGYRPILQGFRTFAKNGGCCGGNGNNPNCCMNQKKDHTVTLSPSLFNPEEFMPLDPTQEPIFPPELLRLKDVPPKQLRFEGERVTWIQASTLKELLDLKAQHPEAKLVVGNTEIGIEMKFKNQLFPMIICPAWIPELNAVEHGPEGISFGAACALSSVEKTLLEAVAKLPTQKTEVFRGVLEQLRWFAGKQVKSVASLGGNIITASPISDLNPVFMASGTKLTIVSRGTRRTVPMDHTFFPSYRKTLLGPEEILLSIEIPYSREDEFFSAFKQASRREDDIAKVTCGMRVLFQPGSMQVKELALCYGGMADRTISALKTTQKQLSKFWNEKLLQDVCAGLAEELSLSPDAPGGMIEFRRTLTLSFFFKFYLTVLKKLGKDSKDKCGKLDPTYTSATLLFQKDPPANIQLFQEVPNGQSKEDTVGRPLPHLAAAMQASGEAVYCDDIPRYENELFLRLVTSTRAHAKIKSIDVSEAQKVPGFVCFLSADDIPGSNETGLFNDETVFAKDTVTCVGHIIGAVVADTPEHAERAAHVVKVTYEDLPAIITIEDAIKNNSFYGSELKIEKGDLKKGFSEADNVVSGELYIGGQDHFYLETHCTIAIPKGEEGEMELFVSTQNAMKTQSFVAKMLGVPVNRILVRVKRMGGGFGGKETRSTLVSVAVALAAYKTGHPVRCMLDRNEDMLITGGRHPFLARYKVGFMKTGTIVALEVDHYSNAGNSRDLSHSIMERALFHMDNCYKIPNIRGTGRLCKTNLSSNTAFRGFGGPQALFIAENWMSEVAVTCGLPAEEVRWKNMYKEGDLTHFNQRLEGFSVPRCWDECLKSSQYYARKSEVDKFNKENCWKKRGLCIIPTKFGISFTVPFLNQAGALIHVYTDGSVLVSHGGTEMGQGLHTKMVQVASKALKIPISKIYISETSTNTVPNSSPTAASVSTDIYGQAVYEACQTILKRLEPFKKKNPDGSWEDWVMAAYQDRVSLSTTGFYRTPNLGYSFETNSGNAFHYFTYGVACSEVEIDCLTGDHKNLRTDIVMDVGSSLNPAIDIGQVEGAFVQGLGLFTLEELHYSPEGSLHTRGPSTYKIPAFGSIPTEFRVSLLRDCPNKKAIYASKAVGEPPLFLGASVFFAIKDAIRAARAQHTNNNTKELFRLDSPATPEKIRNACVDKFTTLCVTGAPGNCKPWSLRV
# UniProt P11802, whole entry: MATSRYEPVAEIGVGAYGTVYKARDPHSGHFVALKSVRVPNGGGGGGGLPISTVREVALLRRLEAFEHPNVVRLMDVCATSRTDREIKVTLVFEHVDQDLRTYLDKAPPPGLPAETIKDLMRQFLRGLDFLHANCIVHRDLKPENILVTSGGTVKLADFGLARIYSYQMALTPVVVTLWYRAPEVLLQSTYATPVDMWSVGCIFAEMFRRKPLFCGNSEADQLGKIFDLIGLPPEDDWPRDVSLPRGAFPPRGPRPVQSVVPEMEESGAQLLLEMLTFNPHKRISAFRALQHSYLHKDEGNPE
# UniProt P56658, whole entry: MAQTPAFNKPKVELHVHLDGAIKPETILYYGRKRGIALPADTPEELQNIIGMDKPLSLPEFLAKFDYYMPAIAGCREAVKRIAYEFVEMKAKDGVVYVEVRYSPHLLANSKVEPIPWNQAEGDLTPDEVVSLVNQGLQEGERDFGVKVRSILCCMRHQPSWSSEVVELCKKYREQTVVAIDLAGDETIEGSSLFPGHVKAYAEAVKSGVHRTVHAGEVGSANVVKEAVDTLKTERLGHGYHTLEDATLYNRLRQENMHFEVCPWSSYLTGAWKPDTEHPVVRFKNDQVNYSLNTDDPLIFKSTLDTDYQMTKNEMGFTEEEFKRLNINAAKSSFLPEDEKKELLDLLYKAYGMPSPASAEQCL
# UniProt Q8N6T7, whole entry: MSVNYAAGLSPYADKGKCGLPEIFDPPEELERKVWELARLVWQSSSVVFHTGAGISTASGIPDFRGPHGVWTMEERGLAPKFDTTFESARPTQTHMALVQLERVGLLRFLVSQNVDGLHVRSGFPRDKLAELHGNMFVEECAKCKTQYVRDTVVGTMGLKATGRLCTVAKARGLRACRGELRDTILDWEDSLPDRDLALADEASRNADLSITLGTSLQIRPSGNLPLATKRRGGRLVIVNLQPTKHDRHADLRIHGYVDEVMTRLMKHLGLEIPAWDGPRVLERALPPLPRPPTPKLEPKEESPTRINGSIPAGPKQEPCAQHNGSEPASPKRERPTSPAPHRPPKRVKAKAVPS
# UniProt P43235, 115-329 limits assumed: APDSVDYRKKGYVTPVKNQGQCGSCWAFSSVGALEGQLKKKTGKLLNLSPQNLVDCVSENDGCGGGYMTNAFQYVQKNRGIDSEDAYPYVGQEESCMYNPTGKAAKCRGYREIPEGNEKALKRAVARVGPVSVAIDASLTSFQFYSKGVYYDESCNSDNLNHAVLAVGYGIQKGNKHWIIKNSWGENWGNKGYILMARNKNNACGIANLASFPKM
# UniProt O70566, 625-1025 limits assumed: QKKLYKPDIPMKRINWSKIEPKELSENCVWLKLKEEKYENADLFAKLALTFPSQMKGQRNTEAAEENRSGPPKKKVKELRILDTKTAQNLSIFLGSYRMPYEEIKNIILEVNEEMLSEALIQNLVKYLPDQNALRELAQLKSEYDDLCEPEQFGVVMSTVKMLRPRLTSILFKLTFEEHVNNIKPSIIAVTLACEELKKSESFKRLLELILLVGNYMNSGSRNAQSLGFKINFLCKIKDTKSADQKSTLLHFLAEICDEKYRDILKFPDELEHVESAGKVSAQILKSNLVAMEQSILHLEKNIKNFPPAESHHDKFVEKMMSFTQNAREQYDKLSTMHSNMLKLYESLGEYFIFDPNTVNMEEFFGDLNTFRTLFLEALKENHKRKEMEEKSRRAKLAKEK
# UniProt Q8BVQ5, whole entry: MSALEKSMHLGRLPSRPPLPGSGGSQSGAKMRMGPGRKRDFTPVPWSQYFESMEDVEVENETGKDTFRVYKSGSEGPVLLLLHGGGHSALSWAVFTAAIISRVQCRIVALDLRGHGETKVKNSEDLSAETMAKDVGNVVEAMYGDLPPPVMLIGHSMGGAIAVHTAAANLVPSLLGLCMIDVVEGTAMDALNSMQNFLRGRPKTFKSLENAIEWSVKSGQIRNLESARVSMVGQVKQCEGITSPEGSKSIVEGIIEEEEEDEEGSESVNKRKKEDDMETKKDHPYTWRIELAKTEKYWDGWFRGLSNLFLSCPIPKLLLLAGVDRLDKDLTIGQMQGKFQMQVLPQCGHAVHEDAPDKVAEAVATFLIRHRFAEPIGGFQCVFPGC
# Numbers after ± are the reported error.
# APP Aβ1-40: Amyloid-beta precursor protein, Aβ1-40 (APP, Homo sapiens, UniProt P05067)
# SLC6A2: Sodium-dependent noradrenaline transporter (SLC6A2, Homo sapiens, UniProt P23975)
# Sigmar1: Sigma non-opioid intracellular receptor 1 (Sigmar1, Rattus norvegicus, UniProt Q9R0C9)
# MGLL: Monoglyceride lipase (MGLL, Homo sapiens, UniProt Q99685)
# GBA2: Beta-glucosidase (GBA2, Homo sapiens, UniProt Q9HCG7)
# SIRT1: NAD-dependent protein deacetylase sirtuin-1 (SIRT1, Homo sapiens, UniProt Q96EB6)
# CTSB: Cathepsin B (CTSB, Homo sapiens, UniProt P07858)
SMILES,target,assay,test system,conditions,how to read,inhibition
O=C(NS(=O)(=O)c1cccc([N+](=O)[O-])c1)c1cc2ccccc2n1Cc1ccc(Br)c2ccccc12,"XDH (Bos taurus, UniProt P80457)","enzyme activity, spectrophotometry",,10 µM,,5.31%
CCOC(=O)/C=C/CNCCCCN1c2ccccc2CCc2ccc(Cl)cc21,"E3 ubiquitin-protein ligase Itchy homolog, HECT domain (Homo sapiens, UniProt Q96J02)","ubiquitination, Ub-TR-FRET",,"concentration not given, HECT domain, up to high concentrations",,no inhibition
N#Cc1ccc2[nH]cc(/C=C/c3ccncc3)c2c1,APP Aβ1-40,"Aβ40 aggregation, thioflavin T fluorescence",,25 µM,,18%
CNc1nc(C#Cc2ccc(Cl)s2)nc2c1ncn2[C@H]1[C@H](O)[C@H](O)[C@]2(C#N)C[C@H]12,SLC6A2,"binding, radioligand binding",HEK293,"10 µM, negative means enhanced binding, together with: [3H]nisoxetine",,-39 ± 11%
COC(=O)/C(=C/c1c[nH]c2ccc(C#N)cc12)c1ccc(NS(C)(=O)=O)cc1,APP Aβ1-40,"Aβ40 aggregation, thioflavin T fluorescence",,25 µM,,0%
C/C(=N\OCCN1CCCCCC1)c1ccc(C(F)(F)F)cc1,Sigmar1,radioligand binding,rat,10 µM,,99.7%
O=C(OC(C(F)(F)F)C(F)(F)F)N1CCc2c(Br)cccc2C1,MGLL,"inhibitor, fluorescence",,"1 µM, together with: AHMMCE substrate",,inactive
COc1ccc2[nH]cc(/C=C/c3ccc(NS(C)(=O)=O)cc3)c2c1,APP Aβ1-40,"Aβ40 aggregation, thioflavin T fluorescence",,25 µM,,42%
CN(C)C(=O)Cn1cc(-c2ccc(-c3cncc4ccncc34)cc2)cn1,"CDK4 (Homo sapiens, UniProt P11802)","enzyme activity, SelectScreen",,concentration not given,,no inhibition
N#Cc1ccc2[nH]cc(/C=C/c3ccc([N+](=O)[O-])cc3F)c2c1,APP Aβ1-40,"Aβ40 aggregation, thioflavin T fluorescence",,25 µM,,27%
C[C@H](OCCCCCN1C[C@H](O)[C@@H](O)[C@H](O)[C@@H]1CO)c1ccc(-c2ccccc2)cc1,GBA2,"inhibitor, FluoPol-ABPP competition",GBA2-overexpressing cell lysate,0.1 µM,,0.2%
Oc1ccccc1C1=NCCS1,"Adenosine deaminase (ADA, Bos taurus, UniProt P56658)","enzyme activity, inhibitor, fluorescence",,100 µM,,no inhibition
C/C(=N\OCCN1CCC(N2CCOCC2)CC1)c1ccc(C(F)(F)F)cc1,Sigmar1,radioligand binding,rat,10 µM,,82.7%
CS(=O)(=O)Oc1cccc(/C=C/c2c[nH]c3ccc(C#N)cc23)c1,APP Aβ1-40,"Aβ40 aggregation, thioflavin T fluorescence",,25 µM,,57%
CCCCCCCCCCCCNC(=S)NCCCC[C@H](NS(=O)(=O)c1ccccc1)C(=O)N[C@H](C)C(=O)N[C@@H](CCCNC(=N)N)C(N)=O,SIRT1,"deacetylation, inhibitor",,"1 µM, together with: acetylated peptide 50 µM",,21%
COC(=O)/C(=C/c1c[nH]c2ccc(F)cc12)c1ccc(F)cc1,APP Aβ1-40,"Aβ40 aggregation, thioflavin T fluorescence",,25 µM,,0%
NCc1ccc(C(=O)NOCc2ccc(C(F)(F)F)cc2)cc1,"SIRT6 (Homo sapiens, UniProt Q8N6T7)","deacetylase activity, fluorogenic",,"100 µM, together with: RHKK-ac-AMC",,88.4 ± 0.33%
O=C(NCc1ccc(F)cc1)C(=O)[C@H](Cc1ccccc1)NC(=O)[C@H]1CCC(=O)N1Cc1ccc(F)cc1,"Cathepsin K (CTSK, Homo sapiens, UniProt P43235)","enzyme activity, inhibitor",,1 µM,,10.4%
O=C(Nc1cccc(F)c1)c1cc(S(=O)(=O)N2CCOCC2)c(Cl)cc1Cl,"Autotaxin (ENPP2, Homo sapiens, UniProt Q13822)",enzyme activity,,"10 µM, 4 h, together with: 1 µM FS-3",,89 ± 0.3%
OC[C@H]1[C@@H](O)[C@H](O)[C@@H](O)CN1CCCCCOCc1ccc(Br)cc1,GBA2,"inhibitor, FluoPol-ABPP competition",GBA2-overexpressing cell lysate,0.1 µM,,4.8%
CCNC(=O)C(=O)[C@H](Cc1ccccc1)NC(=O)[C@H]1CCC(=O)N1Cc1ccccc1,CTSB,"enzyme activity, inhibitor",,1 µM,,0%
Nc1ccc([N+](=O)[O-])cc1-c1nc2ccccc2[nH]c1=O,"Protein diaphanous homolog 2, FH2 domain (Diaph2, Mus musculus, UniProt O70566)","actin assembly, pyrene-actin polymerization",,concentration not given,,inactive
O=C(NNC(=S)Nc1cccc(C(F)(F)F)c1)c1cccn1-c1ccc(F)cc1,"AHSA1/HSP90AB1 (Homo sapiens, UniProt O95433+P08238)","Aha1-stimulated ATPase activity, inhibitor",,5 µM,,inhibited
O=C(NC1CC1)C(=O)[C@H](Cc1ccccc1)NC(=O)[C@H]1CCC(=O)N1Cc1ccccc1,CTSB,"enzyme activity, inhibitor",,1 µM,,13.2%
CC[C@@]1(c2cccc(C)c2)C(=O)N(C(=O)OC)N1C(=O)OC,"Protein phosphatase methylesterase 1 (Mus musculus, UniProt Q8BVQ5)","inhibitor, competitive ABPP-MudPIT",mouse brain proteome,2 µM,reference: DMSO,inhibited
Fc1cccc(/C=C/c2c[nH]c3ccc(F)cc23)c1,APP Aβ1-40,"Aβ40 aggregation, thioflavin T fluorescence",,25 µM,,49%
CCCCCCCCCCCCNC(=S)NCCCC[C@H](NC(=O)c1ccccc1)C(=O)N[C@H](C)C(=O)N[C@@H](CCCNC(=N)N)C(N)=O,SIRT1,"deacetylation, inhibitor",,"1 µM, together with: acetylated peptide 50 µM",,49%
O=C(OC(C(F)(F)F)C(F)(F)F)N1CCc2cc(Br)ccc2C1,MGLL,"inhibitor, fluorescence",,"1 µM, together with: AHMMCE substrate",,inactive
CS(=O)(=O)Nc1ccc(/C=C/c2c[nH]c3ccc(C#N)cc23)cc1,APP Aβ1-40,"Aβ40 aggregation, thioflavin T fluorescence",,25 µM,,31%
CCOC(=O)[C@@]12C[C@@H]1[C@@H](n1cnc3c(NC)nc(C#Cc4ccc(Cl)s4)nc31)[C@H](O)[C@@H]2O,SLC6A2,"binding, radioligand binding",HEK293,"10 µM, negative means enhanced binding, together with: [3H]nisoxetine",,34 ± 6%
Nc1ncn([C@@H]2O[C@H](CO)[C@@H](O)[C@H]2O)c(=O)c1Cl,"ADORA2A (Homo sapiens, UniProt P29274)",radioligand binding,HEK293 membranes,10 µM,,35 ± 11%

# Some of these lines once more:
SMILES,target,assay,test system,conditions,how to read,inhibition
CC[C@@]1(c2cccc(C)c2)C(=O)N(C(=O)OC)N1C(=O)OC,"Protein phosphatase methylesterase 1 (Mus musculus, UniProt Q8BVQ5)","inhibitor, competitive ABPP-MudPIT",mouse brain proteome,2 µM,reference: DMSO,inhibited
Fc1cccc(/C=C/c2c[nH]c3ccc(F)cc23)c1,APP Aβ1-40,"Aβ40 aggregation, thioflavin T fluorescence",,25 µM,,49%
